Experimental data of several laboratories.
Each numbered part is a random draw from the data of one study; scales do not carry over between parts. Positions count from the first letter of the parent shown.

Study 1
Target: NFE2L1, bZIP domain (human)
Method: DHFR protein complementation
Medium: yeast
Notes: single substitutions, most at no-binding floor
Relative to: wild-type JUN-FOS pair
Reading: higher = stronger binding
Endpoint: binding fitness
Parent: JUN, bZIP domain (human); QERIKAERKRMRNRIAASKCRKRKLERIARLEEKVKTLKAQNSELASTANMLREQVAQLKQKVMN; partner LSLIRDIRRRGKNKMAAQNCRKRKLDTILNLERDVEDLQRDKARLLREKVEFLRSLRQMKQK
Substitution = L52P; value = -1.54 natural log
Substitution = V56E; value = -1.57 natural log
Substitution = N42H; value = -1.24 natural log
Substitution = E44K; value = -1.59 natural log
Substitution = L45M; value = -1.49 natural log
Substitution = E33H; value = -1.58 natural log
Substitution = E32H; value = -1.48 natural log
Substitution = T37H; value = -1.27 natural log
Substitution = E33Q; value = -1.34 natural log
Substitution = Q41I; value = -1.38 natural log
Substitution = V35P; value = -1.5 natural log
Substitution = M51A; value = -1.42 natural log
Substitution = A29V; value = -1.44 natural log
Substitution = K39S; value = -1.41 natural log
Substitution = S43W; value = -1.48 natural log
Substitution = R30L; value = -1.29 natural log
Substitution = V35E; value = -1.53 natural log

Study 2
Target: CCNB2, cyclin fold, Cln2 fusion (human)
Method: yeast growth competition, sequencing
Medium: yeast
Notes: weak parent motif
Relative to: not given
Reading: higher = stronger binding
Endpoint: normalised enrichment score
Parent: SLBP docking peptide (human); ARYKRKLLINDFG
Substitution = ARYKRKLLINDCG [F12C]; value = 0.202
Substitution = ARCKRKLLINDFG [Y3C]; value = 0.124
Substitution = WRYKRKLLINDFG [A1W]; value = 1.28
Substitution = AHYKRKLLINDFG [R2H]; value = 0.616
Substitution = ARYKRDLLINDFG [K6D]; value = -0.00607
Substitution = ARYKRKGLINDFG [L7G]; value = 0.847
Substitution = ARYKRKLLIQDFG [N10Q]; value = 0.557
Substitution = ARYKKKLFINDFG [R5K L8F]; value = 0.228
Substitution = ARGKRKLLINDFG [Y3G]; value = 0.552
Substitution = ARYKRKLLMNDFG [I9M]; value = 0.688
Substitution = AYYKRKLLINDFG [R2Y]; value = 0.84
Substitution = ARYKRKLLINDYG [F12Y]; value = 1.17
Substitution = VRYKRKLLINDFG [A1V]; value = 0.87
Substitution = ARYKVKLLINDFG [R5V]; value = 0.723
Substitution = ARRKRKLLINDFG [Y3R]; value = 0.15
Substitution = ARYKRKLLINDFH [G13H]; value = 0.599
Substitution = ARYKRKLLINWFG [D11W]; value = -0.147
Substitution = ARYKRKLLIEDFG [N10E]; value = 1.36
Substitution = ARYKRKLAINDFG [L8A]; value = 0.498
Substitution = ARYKRKLLINDRG [F12R]; value = 1.44
Substitution = DRYKRKLLINDFG [A1D]; value = 0.622
Substitution = ARYKRKLLINDAG [F12A]; value = 0.0265
Substitution = ARYKRKLLINNFG [D11N]; value = 0.219
Substitution = ARYCRKLLINDFG [K4C]; value = 0.00825
Substitution = ARYKEKLLINDFG [R5E]; value = 0.0689

Study 3
Target: Ras GTPase-activating protein-binding protein 1, C-terminal RGG region (G3BP1, Homo sapiens, UniProt Q13283)
Chain of UniProt Q13283 (whole entry, looked up): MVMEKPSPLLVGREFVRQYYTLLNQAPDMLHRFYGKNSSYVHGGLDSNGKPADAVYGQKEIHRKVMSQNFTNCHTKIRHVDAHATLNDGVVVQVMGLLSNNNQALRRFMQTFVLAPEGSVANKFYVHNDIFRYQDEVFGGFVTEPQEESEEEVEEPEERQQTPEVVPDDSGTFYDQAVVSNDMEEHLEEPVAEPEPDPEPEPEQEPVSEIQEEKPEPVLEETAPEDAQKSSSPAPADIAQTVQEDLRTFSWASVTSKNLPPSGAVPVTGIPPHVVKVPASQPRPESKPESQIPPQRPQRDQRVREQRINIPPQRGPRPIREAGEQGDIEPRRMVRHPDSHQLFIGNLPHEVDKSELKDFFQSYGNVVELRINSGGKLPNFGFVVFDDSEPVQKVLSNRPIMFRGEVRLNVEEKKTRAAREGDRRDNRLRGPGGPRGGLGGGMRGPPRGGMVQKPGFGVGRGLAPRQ
Method: RNA Bind-n-Seq
Form: RNA
Medium: in vitro
Tested at: 1 µM
Notes: whole 134-nt RNA, ends assumed
Together with: 150 mM KCl
Relative to: input library
Reading: higher = stronger binding
Endpoint: log2 enrichment
All sequences stand within: GGGAGUUCUACAGUCCGACGAUC … UGGAAUUCUCGGGUGUCAAGG
Strand = UAACUUUAGAGGAGGAUCUGAUGGAUAUGGCAGGGGACGUGGAUUUGGGGAUGGCUAUAAUGGGUAUGGAGGAGGACCUGGAGGUGGCAA; value = 0.669
Strand = UUAAGGGAAUCUAUUGCUGAACACAAACCUCAUAUUGACAAACUACUAAAGAUAGGCCCACAACUAAAGGAAUUAAACCCUGAGGAAGGG; value = -1.18
Strand = CAAGUCCUGUGCUACACAUCGUAUGUACCGAAUCGGGGAAAGGGGUGGGGUGGGGAAAGUAUUAUGUUACGCCGUUCGGAUCUGCACUUC; value = 2.69
Strand = UCAAGUCCUGUGCUACACAUCGUAUGUACCGAAUCGGGGUGGGGUGGGGUGGGGAAAGUAUUAUGUUACGCCGUUCGGAUCUGCACUUCC; value = 2.14
Strand = AAGUCCUGUGCUACACAUCGUAUGUACCGAAUCGGCCCCGGGCCCCGGGGCCCCGGAAAGUAUUAUGUUACGCCGUUCGGAUCUGCACUU; value = -1.82
Strand = UGGCCCUGGUGGCAUACGGGGAGGAAGAGGUGGCCUCAUGGAUCGUGGUGGUCCCGGUGGAAUGUUCAGAGGUGGCCGUGGUGGAGACAG; value = 1.87
Strand = CCUGUGCUACACAUCGUAUGUACCGAAUCGGGGUUUUUUGGGUUUUUUGGGUUUUUUGGGAAAGUAUUAUGUUACGCCGUUCGGAUCUGC; value = -1.24
Strand = UCAAGUCCUGUGCUACACAUCGUAUGUACCGAAUCGGAAAGGAAAAAAAGGUGGAAAGUAUUAUGUUACGCCGUUCGGAUCUGCACUUCC; value = -1.25
Strand = UGGCCCUGGUGACAUGCGGGGAGGAAGAGGUGGCCUCAUGGAUCGUGGUGGUCCCGGUGGAAUGUUCAGAGGUGGCCGUGGUGGAGACAG; value = 1.97
Strand = UUCUGCACCUCUGCUACCUAAAGAAGACCCAAUCUUCACAUAUUUAUCUAAACGGUUAGGAAGGAGUAUAGAUGACAUAGGUCACCUCAU; value = -0.576
Strand = GCAGGAAGUAAAAACAAAUGGAAAUGCUUCGGAUAGUGGCAGAAAUGGGGGUUGCUAAGGAAAGGGUGGGAUGGGAGUGGGUAAAGAGUU; value = 1.54
Strand = UGGCUGGCUGUGGCCUCACAGCUGAGGACUGCAAGGACCUUGCCUUUGGGCUGAGAGCCAACCAGACCCUGACCGAGCUGGACCUGAGCU; value = -2.19
Strand = GCAGGAAGUAAAAACAAAUGGAAAUGCUUCGGAUAGUGGCAGGGGUGGGGGUUGCUAAGGAAAGGGUGGGAUGGGAGUGGGUAAAGAAAA; value = 2.12
Strand = AGUCCUGUGCUACACAUCGUAUGUACCGAAUCGGGGAAAAAAAGGGGAGGGGAGGGGAAAGUAUUAUGUUACGCCGUUCGGAUCUGCACU; value = 2.18

Study 4
Target: RNA binding protein fox-1 homolog 2, RRM domain, GST-SBP tag (RBFOX2, Homo sapiens, UniProt O43251-10, residues 100-194)
Method: RNA Bind-n-Seq
Form: RNA
Medium: in vitro
Tested at: 365 nM
Notes: natural RNA segment, single round, ends assumed
Relative to: no-protein control
Reading: higher = stronger binding
Endpoint: RBNS enrichment (R)
All sequences stand within: GGGAGUUCUACAGUCCGACGAUC … UGGAAUUCUCGGGUGCCAA
Target sequence (chain): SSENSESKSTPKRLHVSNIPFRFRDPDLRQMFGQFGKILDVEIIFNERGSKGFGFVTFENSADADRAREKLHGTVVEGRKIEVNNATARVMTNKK
Strand = AGGCUUCCGCCAAGCUCUGGUCCCGAAGAGGCUGUGCGAGCCCUUCCCGGCCCUCCCCAGGGCCCCCCGCCCCCUCCUCUGCCUGCUGCGUGGAGGCAGCCAUGGGAAGG; value = 0.329
Strand = AGCCUGGGUGCCAGGCAGCGGGCAAUAGGCAGGGAUGCCACUGCCUCCAAAAGACUCCUUGCAUUAGGUGAUCCAGGAGCCCUGUCACUAAGCCCCUGCCCCUGAGCUCC; value = 1.5
Strand = UUGGGUCUCAGACUCAGUUUCCCCGUUCAUACAUACAGGGAGUAUGAAGUCAGGUAGCCUAAGAUCUCCCACUCCCUGCCUCCCUUUGACGUGGUACAGCCACCCCCACC; value = 0.269
Strand = AUUGUUUUGGUUUUGGUUUUGAUGGGGACUGGUCUUUAAGACUGUCAUUUGAUAUUUUUUUACAUCAGAGUUUAUCCCACAGUCCCCCAUCUCUCCCUCCUCCUUCCCUC; value = 0.492
Strand = AGAGAAAUUCCCCCGAAGACUGAGCUGGUUGCCUGCAUCCUCUAUCUUCUUUGACCCUUAUGACUGAAAGAUCAUCAGUUUGGAAGGUACUGGUCCAAUUUAUUUAGGAA; value = 1.04
Strand = AAGGUGUGUGCCUCCAUACUCUUGACACCAGUUUUCAGUUGAGGAUUGUUGAGCAUAGCUGGCUUGCCCAAUCUCACAGUGGGUAGGAAGGAGAUGAAGUUUGGAAUCCA; value = 0.757
Strand = AUGCCCUGUAAACACUCUCUCAGCAGAACAAGGACAAAGUGCCGUGUCUGAGAGAGAGUGCCACACCUUGUAGGGACUGGCAGGAAACAGGUCAGGGCCUUCCCCAGAGC; value = 0.293
Strand = CGACUCAAGGGACGUGUGUACAUAUGUAAAUGAGAAAUAGAGACGUGUCAACAGAUGCAUUCAUUUCUCUUGGAAUGUGUAUUGUUUUUAUUUUGCGAAACAAAACAAAA; value = 0.292
Strand = AAAAGUGUGCUAGAACUUUUUAAAAACACAUAAUGUCUUGAAGUUAGAAUAAACACUAAGAAAUGACAUGUCUGGUGUUACUGCACAAAAGCUUAUCUGGUUUGUGACUG; value = 0.628
Strand = ACUGGGGACCCGAGCCAGCCAGGCCAUGUUUGCAGGGAAGGAUGCCAAGCAGGGCCUGCCCUGACAGUUCCACUUUACUCCCAUAUUCUCCCCGUGCUCCUGGCGAGCCU; value = 0.668
Strand = GGGACAGCAAAAGCCAGUAACCAUGAGUAUGAGGAAAUCUCUUUCUGUUGCUGGCUUACAGUUUCUCUGUGUGCUUUGUGGUUGCUGUCAUAUUUGCUCUAGAAGAAAAA; value = 0.387
Strand = UCCAGAGACGGUGUUUCCAGGGGGAGGACCGCCCCCGCUUCCAGAUCCCCGGCCCCGGCUGUGACUGCCCUGUUUCACCCCUGCUGUGUCCCAUCCCCCGUCUGUCCACU; value = 0.375

Study 5
Target: PABPC1L2, full length, GST fusion (mouse, UniProt A0ABA7IW68)
Method: RNAcompete
Form: RNA
Medium: in vitro
Tested at: 20 nM
Notes: 7-mer, probes averaged, single round
Relative to: mean of 7-mers
Reading: higher = stronger binding
Endpoint: 7-mer Z-score
Strand = GACUACU; value = -0.0156
Strand = CCCUCGG; value = -0.441
Strand = UAGGUGC; value = 0.407
Strand = AAGCUCC; value = -0.18
Strand = UAUGCUU; value = -0.335
Strand = ACUGAUA; value = -0.021
Strand = CCGAAGU; value = -0.249
Strand = UUGAGAU; value = -0.124
Strand = GCGGCCC; value = -0.344
Strand = CGCGGAC; value = -0.0482
Strand = GUCGGGC; value = -0.0627
Strand = AUCUCGC; value = -0.347
Strand = CUCGCUC; value = -0.298
Strand = ACUCACA; value = -0.166
Strand = GAGUUCC; value = -0.277
Strand = AUGGUAC; value = -0.0935

Excerpt of the above (study 4):
Strand = UUGGGUCUCAGACUCAGUUUCCCCGUUCAUACAUACAGGGAGUAUGAAGUCAGGUAGCCUAAGAUCUCCCACUCCCUGCCUCCCUUUGACGUGGUACAGCCACCCCCACC; value = 0.269
Strand = AUUGUUUUGGUUUUGGUUUUGAUGGGGACUGGUCUUUAAGACUGUCAUUUGAUAUUUUUUUACAUCAGAGUUUAUCCCACAGUCCCCCAUCUCUCCCUCCUCCUUCCCUC; value = 0.492
Strand = AGAGAAAUUCCCCCGAAGACUGAGCUGGUUGCCUGCAUCCUCUAUCUUCUUUGACCCUUAUGACUGAAAGAUCAUCAGUUUGGAAGGUACUGGUCCAAUUUAUUUAGGAA; value = 1.04
Strand = AAGGUGUGUGCCUCCAUACUCUUGACACCAGUUUUCAGUUGAGGAUUGUUGAGCAUAGCUGGCUUGCCCAAUCUCACAGUGGGUAGGAAGGAGAUGAAGUUUGGAAUCCA; value = 0.757
Strand = AUGCCCUGUAAACACUCUCUCAGCAGAACAAGGACAAAGUGCCGUGUCUGAGAGAGAGUGCCACACCUUGUAGGGACUGGCAGGAAACAGGUCAGGGCCUUCCCCAGAGC; value = 0.293
Strand = CGACUCAAGGGACGUGUGUACAUAUGUAAAUGAGAAAUAGAGACGUGUCAACAGAUGCAUUCAUUUCUCUUGGAAUGUGUAUUGUUUUUAUUUUGCGAAACAAAACAAAA; value = 0.292
Strand = AAAAGUGUGCUAGAACUUUUUAAAAACACAUAAUGUCUUGAAGUUAGAAUAAACACUAAGAAAUGACAUGUCUGGUGUUACUGCACAAAAGCUUAUCUGGUUUGUGACUG; value = 0.628
Strand = ACUGGGGACCCGAGCCAGCCAGGCCAUGUUUGCAGGGAAGGAUGCCAAGCAGGGCCUGCCCUGACAGUUCCACUUUACUCCCAUAUUCUCCCCGUGCUCCUGGCGAGCCU; value = 0.668
